# Measured values of several laboratories.
# Each line is one published result; not all experiments were run side by side. Numbers after ± are the reported error.
# Organism: Salmonella typhimurium
Compound,assay,test system,setting,how to read,endpoint,value
O=NN1CCN(C2CCCC2)CC1,"mutagenicity, Ames plate incorporation",TA100,"5000 µg/plate, 3 d, without S9, methanol",,revertant colonies per plate,135 ± 5
Cc1cc(C(=O)NC(C)(C)COc2cccc3c2C(N)=NS(=O)(=O)N3)cc(C)n1,"Ames test, confirmatory",TA100,"3333 µg/plate, together with: rat liver S9",reference: solvent control,revertant ratio,0.8
O=[N+]([O-])c1ccc(N2CCN(CCC(O)c3ccc(F)cc3)CC2)c(C(F)(F)F)c1 (stereo not drawn),SOS/umu test,TA1535/pSK1002,"0.004 mg/mL, 4 h, with S9, lower range",,survival,77%
COCCN(CCOC)N=O,"mutagenicity, Ames plate incorporation",TA1537,"2500 µg/plate, 3 d, without S9, methanol",,revertant colonies per plate,11.3 ± 3
O=[N+]([O-])c1ccc(NC2CCNCC2)c(C(F)(F)F)c1,SOS/umu test,"TA1535/pSK1002, TGA medium","1 mg/mL, 4 h, together with: 10% rat liver S9",,survival,69.5%
CC(=O)N1CCC(C(=O)N2CCN3C(=O)c4cc(-c5ccccc5)ccc4NC(=O)C3C2)CC1 (stereo not drawn),,TA1537,1.58 µg/plate,reference: vehicle,fold increase in revertants,1.1
CC(C)N(C)N=O,"mutagenicity, Ames plate incorporation",TA100,"150 µg/plate, 3 d, without S9, methanol",,revertant colonies per plate,174 ± 18
OC(CCN1CC=C(c2ccc(F)cc2)CC1)c1ccc(F)c2ccccc12 (stereo not drawn),"genotoxicity, SOS/umu test",TA1535/pSK1002,"0.002 mg/mL, 4 h, with S9, full range",,induction factor,1
N#C[C@@]1(n2ccc(N)nc2=O)O[C@H](CO)[C@@H](O)[C@H]1O,,TA1537,"25 µM, without S9",,viability,102%
COc1cccc(-c2n[nH]c(SCc3ccccn3)n2)c1OC,"Ames test, preincubation",TA100,"1.0 mg/plate, without S9",,revertant colonies per plate,104
O=[N+]([O-])c1ccc(N2CCC(NCCC(O)c3ccc(F)c4ccccc34)CC2)c(C(F)(F)F)c1 (stereo not drawn),"genotoxicity, SOS/umu test",TA1535/pSK1002,"0.031 mg/mL, 4 h, without S9, full range",,induction factor,0.48
CN(N=O)c1ccc(F)cc1,"mutagenicity, Ames plate incorporation",TA100,"2500 µg/plate, 3 d, without S9, methanol",,revertant colonies per plate,137 ± 18
